Measured values pooled from the literature.
Parts stem from different laboratories: compare values within a part only. Positions count from the first letter of the parent shown.

Study 1 — technique: RNA Bind-n-Seq; form: RNA; matrix: in vitro; tested at: not given; relative to: input RNA pool; reading: higher = stronger binding; endpoint: bound/input enrichment
Target: RING finger protein unkempt homolog, zinc fingers 1-6, GST-SBP tag (UNK, Homo sapiens, UniProt Q9C0B0, residues 30-357)
Sequence of UniProt Q9C0B0 (30-357, looked up): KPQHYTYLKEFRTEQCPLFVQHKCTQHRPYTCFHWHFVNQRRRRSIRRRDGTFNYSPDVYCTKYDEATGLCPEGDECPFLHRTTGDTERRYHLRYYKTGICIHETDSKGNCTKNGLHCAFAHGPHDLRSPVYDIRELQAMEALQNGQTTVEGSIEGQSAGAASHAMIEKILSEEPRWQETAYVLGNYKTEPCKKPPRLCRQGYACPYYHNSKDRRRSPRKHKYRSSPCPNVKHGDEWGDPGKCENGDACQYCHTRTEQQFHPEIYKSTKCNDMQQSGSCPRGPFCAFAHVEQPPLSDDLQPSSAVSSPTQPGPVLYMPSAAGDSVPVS
Setting: RNA with constant flanks, human and mouse sites, ends assumed
Constant ends, left off below: GGGAGUUCUACAGUCCGACGAUC … CAACAGAGGAUUGAGCAUCA
CAAGAUAAAUUUCAGACCAUGUCUGACCAGAUCAUUGGGAGAAUUGAUGAUAUGAGUAGUCGCAUUGAUGAUCUGGAAAAGAAUAUCGCGGACCUCAUGACACAGGCUGGGGUGGAAGAA: 0.446 ratio
UGUAGACCAGGCUGGCCUUGAACUCAUGGAGACCUGCCUACCUCUGCCUUCUAAGUGUUGAGAUUAAUGGCGUGAGCCACCAAUUGUGAAAAAGUUGUGAACUUCCCCUCUUCCCAAAGU: 0.246 ratio
UCAAUAGAGAAUAUUUUGGAUAAUUUAGAAGAUAUGGAUUUUACUGCAUUUGGUGAUGACGAUGAGAUUCCUCAGGAACUGCUUUUAGGAAAACAUCAGCUUAAUGAACUUGGGAGUGAA: 18.5 ratio
GACUGAUUCUCAACUGAACAUUAUGUCGUUACUUUGAUAAGCAUUCCACUUUUGUUAUUUAUUAGUGCUAUCUUUUUUUUUUACGUGUUAAAUCUUGUGAUUAUUAAAAUAAAGUACCAU: 2.35 ratio
UAUAAUGCCUUGGAAACAAACAUUAUUCCAUCGUUUGUGCUGAUGGACAUCCAGGCUUCUACUGUGGUCACUUACGUCUAUCAACUAAUUGGAGAUGACGUCAAAGUAGAACGAAUUGAG: 0.125 ratio
CCAUGAAAAAGGAAGAGGACAAUUCAUAGAGAAUAAAAUCUAUGCAAACAACUUUGCAGGUGUAUGGAUUACCUCAAAUAGUGACCCAACAAUAAGGGGAAAUUCUAUAUUUAAUGGAAA: 0.463 ratio
AAGAGGGCGAACAUUCGACUUCCACCUGAAGUAAAUCGGAUAUUGUAUAUAAGAAAUUUGCCAUACAAAAUCACAGCUGAAGAAAUGUAUGAUAUAUUUGGGAAAUAUGGACCUAUUCGU: 0.125 ratio
AUCCCUCAGGAAUUGAACAACAUUACCAAGCUCAAUGAACACUUCAGCAAAUUUGGAACUAUUGUUAAUAUCCAGGUUGCUUUUAAGGGUGACCCAGAAGCAGCCCUAAUCCAAUAUCUU: 0.104 ratio
GAACUGGUGGACUACAUUACAAUAAGCAGAGGCUGUCUGACAGAGCAGACUUACCCUGAAGUAGUUAGAAUGGUAUCUUGCAAUAUAUUCAGAACUCUCCCUCCUAGUGACAGCAAUGAA: 0.567 ratio
GUGACAUCUAAUGAGGUGUGAGCACGGAAGGUUCUUUUUUUCAGUGGCUCUUUUGUCAGAACUAGAGUCAGCCAUCACCCUCGCAGCAACCACCUGACUGCAGGUCAGAUCUCCCCCAGG: 0.161 ratio
AUGUGAUGGGCAUUGAGCCACACCUCUUCUUAGACUGAAUAUUGAAGUUUUUGUUUUGAGUUAUGUUUAUAACAUUUAUUUCAGAACAAUAAAGAUUCAGAUUUGUGACAAAGGCCUUAA: 0.165 ratio

Study 2 — technique: protein binding microarray; form: double-stranded DNA, one strand shown; matrix: in vitro; tested at: not given; relative to: not given; reading: higher = stronger binding; endpoint: E-score
Target: Histone acetyltransferase KAT6A, winged helix 1, GST fusion (KAT6A, Homo sapiens, UniProt Q92794, residues 1-85)
Setting: 8-mer, flanks averaged, mean of 2 arrays, mostly near background
Residues (chain): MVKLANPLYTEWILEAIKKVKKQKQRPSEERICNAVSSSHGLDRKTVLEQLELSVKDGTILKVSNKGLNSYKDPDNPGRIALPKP
ATCCTTCG: -0.117
CAGGTCTC: -0.172
CTTAGCGA: 0.06
CTGATTAC: 0.0659
TCAGGTAA: -0.138
CAAGTTGA: -0.215
AGCTTCTA: -0.103
GCTCTTGA: -0.0374
AATAATTC: 0.0522
GTGTCCCA: 0.034
CGTCGGAG: 0.338
CGGTGTAC: 0.258
CGTACGCA: 0.342
AAGTGAGC: -0.232
ATTGGGTG: -0.15
CACAGAGG: -0.162
CTGGGAGA: -0.164
GGTATGAC: 0.164
GGATACAA: -0.108
AGTCCGTG: 0.153
CCGCACAG: 0.218
CGTATACA: -0.00674
ATTAAATC: -0.0561

Study 3 — technique: protein-binding microarray; form: double-stranded DNA, one strand shown; matrix: in vitro; tested at: 250 nM; setting: 60-bp whole probe; with: salmon DNA 0.4 mg/ml; relative to: random background probes; reading: higher = stronger binding; endpoint: log fluorescence; constant ends, left off below: GCCTAGCAC … GTCTTGATTCGCTTGACGCTGCTG
Target: Interferon regulatory factor 7, full length, phosphomimetic (IRF7, Homo sapiens, UniProt Q92985, residues 1-503, S101K/S471D/S472D/S475D/S476D/S477D/S483D/S484D/S487D)
Target sequence (chain): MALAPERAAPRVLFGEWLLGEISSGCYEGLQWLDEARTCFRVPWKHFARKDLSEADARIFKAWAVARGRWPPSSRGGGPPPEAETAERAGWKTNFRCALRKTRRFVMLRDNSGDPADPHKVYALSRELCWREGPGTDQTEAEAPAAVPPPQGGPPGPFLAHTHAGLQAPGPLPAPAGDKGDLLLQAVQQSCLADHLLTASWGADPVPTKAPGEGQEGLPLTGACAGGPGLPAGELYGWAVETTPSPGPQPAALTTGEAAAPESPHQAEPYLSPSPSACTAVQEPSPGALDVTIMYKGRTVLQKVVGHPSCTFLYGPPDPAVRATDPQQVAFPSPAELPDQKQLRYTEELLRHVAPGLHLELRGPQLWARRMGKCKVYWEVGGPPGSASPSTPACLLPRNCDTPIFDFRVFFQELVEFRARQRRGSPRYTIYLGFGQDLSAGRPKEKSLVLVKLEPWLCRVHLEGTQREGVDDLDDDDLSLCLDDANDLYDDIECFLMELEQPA
TGGAGCCTAAGGTTTAGGCTCGTGCTA: -0.495 z-score
GACGAATTCAGTTTCGAGACGTGCTAG: 5.04 z-score
TTCGGTTCCCTTTTCCTTTAGTGCTAG: 4 z-score
GACGCTATCGGGTATCGGGACGTGCTA: 0.0382 z-score
TGTACTCTCTACATGGGCTTGTGCTAG: 0.552 z-score
GACGATCTCCGTCTCGAGACGTGCTAG: -0.11 z-score
ATAGATTTCAGTTTCGATTAGTGCTAG: 9.52 z-score
GACGATGTCAGTCTCGAGACGTGCTAG: 0.0271 z-score
TTAGGCCTGGACTTTCGGTTAGTGCTA: 0.208 z-score
GACGGTTTCGGTCTAGGGACGTGCTAG: 8.41 z-score
TTAGAACTGGGGTATCGGTTAGTGCTA: 0.29 z-score
GACGGTTTCCTTCTCCTGATGTGCTAG: 2.55 z-score
GACGAACTGGGGTACCGAGACGTGCTA: -0.628 z-score
TTAGGTTTCCTTCCCCTTTAGTGCTAG: 1.76 z-score
GACGCACTGAGTCTCGAGACGTGCTAG: 0.419 z-score
TCAATGATTGGTTGAACACTGTGCTAG: -0.391 z-score
GACGATCTCAGTTTCGAGACGTGCTAG: 4.22 z-score

Study 4 — target: CCNA2, cyclin fold, Cln2 fusion (human); technique: yeast growth competition, sequencing; matrix: yeast; setting: strong parent motif; relative to: not given; reading: higher = stronger binding; endpoint: normalised enrichment score
Starting sequence: E2F1 docking peptide (human); PPVKRRLDFETDH; partner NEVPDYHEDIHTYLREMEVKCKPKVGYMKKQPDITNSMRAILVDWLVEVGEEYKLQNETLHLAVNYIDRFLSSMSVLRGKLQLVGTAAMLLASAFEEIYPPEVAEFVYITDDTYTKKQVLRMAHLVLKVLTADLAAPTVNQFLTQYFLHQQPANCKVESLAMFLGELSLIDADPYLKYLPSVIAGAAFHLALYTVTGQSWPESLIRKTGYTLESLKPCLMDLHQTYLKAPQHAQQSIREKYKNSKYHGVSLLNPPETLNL
PPVKRRLDFETMH [D12M]: 6.13
PPKKRRLDFETDH [V3K]: 2.06
PSVKRRLDFETDH [P2S]: 6.35
PPVKRLLDFETDH [R6L]: 4.07
PPVMRRLDFETDH [K4M]: 5.1
PPVKRRLRFETDH [D8R]: 5.87
PPVKRRGDFETDH [L7G]: -0.0505
PPVKRRLDFETRH [D12R]: 6.44
PYVKRRLDFETDH [P2Y]: 6.25
PPVKRRLDFETWH [D12W]: 6.15
PPVKRRLDFCTDH [E10C]: 6.17
PPVKRRNDFETDH [L7N]: -0.119
PPVKRRLNFETDH [D8N]: 6
PPVKRRLDFEQDH [T11Q]: 6.14
PLVKRRLDFETDH [P2L]: 6.13
PPVKRRLDFEYDH [T11Y]: 5.8
PPVKRRLDFETIH [D12I]: 6.14
PPVKRRLDFETPH [D12P]: 6.54
PPVIRRLDFETDH [K4I]: 4.98
PPVKRRLDYETDH [F9Y]: 5.72
PPVKRRLWFETDH [D8W]: 6.66
PPVERRLDFETDH [K4E]: 3.71
PPVSRRLDFETDH [K4S]: 5.74

Study 5 — technique: universal PBM; form: double-stranded DNA, one strand shown; matrix: in vitro; tested at: not given; reading: higher = stronger binding; endpoint: E-score
Target: Sal-like protein 4, full length isoform B (SALL4, Homo sapiens, UniProt Q9UJQ4-2, residues 1-616)
Setting: 8-mer, flanks averaged, mean of replicates
Target sequence (chain): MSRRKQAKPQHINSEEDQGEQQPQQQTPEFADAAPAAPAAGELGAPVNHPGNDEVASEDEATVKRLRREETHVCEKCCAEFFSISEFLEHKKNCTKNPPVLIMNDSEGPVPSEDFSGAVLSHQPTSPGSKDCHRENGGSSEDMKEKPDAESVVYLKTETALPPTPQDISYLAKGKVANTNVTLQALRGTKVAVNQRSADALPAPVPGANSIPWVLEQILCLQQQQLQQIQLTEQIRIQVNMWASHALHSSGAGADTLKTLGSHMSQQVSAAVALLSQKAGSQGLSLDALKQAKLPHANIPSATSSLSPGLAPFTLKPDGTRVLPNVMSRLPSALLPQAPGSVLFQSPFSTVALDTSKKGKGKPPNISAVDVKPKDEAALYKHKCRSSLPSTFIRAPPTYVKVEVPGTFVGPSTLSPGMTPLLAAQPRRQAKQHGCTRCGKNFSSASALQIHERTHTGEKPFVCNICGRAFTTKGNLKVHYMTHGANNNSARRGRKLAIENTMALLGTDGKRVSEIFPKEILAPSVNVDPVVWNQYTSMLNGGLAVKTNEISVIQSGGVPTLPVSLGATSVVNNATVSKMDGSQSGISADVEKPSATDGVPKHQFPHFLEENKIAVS
ATTAGTCA: 0.186
CGGGTCTC: -0.397
ATGGACTG: -0.092
ACACTCCA: -0.00284
GAGTACTC: -0.0977
ATCCCCGC: -0.306
AACGTGTA: 0.211
GTTTGGCA: 0.0163
ATGCGTCG: -0.0469
GCTGAGAA: -0.194
CCAGGCAG: -0.253
CAAATAGA: 0.111
AGTGGAAT: 0.179
AGGTCTAC: -0.103
GTGTTTGA: 0.117
CACCTTGG: -0.258
CCATGTCC: -0.195
ATAGGTAG: 0.164
CGAACGGA: -0.105
GACTTCCC: -0.21
CAGTCAAA: -0.0397
GACCCAGA: -0.206
CACGGGCA: -0.213
CACTCCTA: 0.00988
GAAGAATA: 0.224

Study 6 — technique: DHFR PCA, dose-response; matrix: yeast; setting: Hill fit, mean, not affinity; with: (+)-ABA, dose series; reading: lower = more sensitive; endpoint: ABA EC50
Target: ABI1, truncated, D143A, DHFR fusion (Arabidopsis thaliana, UniProt P49597)
Starting sequence: PYL1, truncated, DHFR fusion (Arabidopsis thaliana, UniProt Q8VZS8); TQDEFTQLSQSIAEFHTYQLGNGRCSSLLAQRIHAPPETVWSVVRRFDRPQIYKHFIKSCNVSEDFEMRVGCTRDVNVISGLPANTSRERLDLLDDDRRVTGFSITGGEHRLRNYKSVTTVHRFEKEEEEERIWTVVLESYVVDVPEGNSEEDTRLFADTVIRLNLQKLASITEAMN
Y18T: 10.7 µM
E109Y: 42.5 µM
E147V: 3.62 µM
A35Q: 90.8 µM
D48Q: 82.8 µM
F124L: 1.37 µM
E152V: 5.64 µM
R45M: 286 µM
E128L: 3.68 µM
W134S: 1.34 µM
N61L: 2.91 µM
A30I: 1.89 µM
R49N: 3.68 µM
V40C: 79.4 µM
E38I: 82 µM
S80N: 181 µM
Q167W: 19.1 µM

Mixed results
PhoQ, residues 284 288 289 292 302 303 SNGLAW — fold induction (PhoP, residues 12 14 15 18 19 SGWQI (Escherichia coli, UniProt P23836); Sort-seq, item: YFP reporter; E. coli; PhoQ-PhoP variant library, with: 10 µM Mg2+; relative to: high Mg2+ state, higher = stronger signaling): 6.75

Some of these lines once more (study 6):
N61L: 2.91 µM
A30I: 1.89 µM
A35Q: 90.8 µM
E128L: 3.68 µM
Q167W: 19.1 µM
W134S: 1.34 µM
E152V: 5.64 µM
E38I: 82 µM
R45M: 286 µM
S80N: 181 µM
V40C: 79.4 µM
E147V: 3.62 µM
Y18T: 10.7 µM
E109Y: 42.5 µM
R49N: 3.68 µM
F124L: 1.37 µM
D48Q: 82.8 µM
